Assay results from different studies.
Each numbered part is a random draw from the data of one study; scales do not carry over between parts. Substitutions count along the parent as printed.
Chain of UniProt O24410 (whole entry, looked up): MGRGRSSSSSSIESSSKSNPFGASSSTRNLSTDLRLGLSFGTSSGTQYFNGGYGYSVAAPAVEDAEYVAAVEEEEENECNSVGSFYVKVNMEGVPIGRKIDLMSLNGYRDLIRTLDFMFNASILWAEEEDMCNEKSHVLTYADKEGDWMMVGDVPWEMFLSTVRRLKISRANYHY
Chain of UniProt Q9C966 (whole entry, looked up): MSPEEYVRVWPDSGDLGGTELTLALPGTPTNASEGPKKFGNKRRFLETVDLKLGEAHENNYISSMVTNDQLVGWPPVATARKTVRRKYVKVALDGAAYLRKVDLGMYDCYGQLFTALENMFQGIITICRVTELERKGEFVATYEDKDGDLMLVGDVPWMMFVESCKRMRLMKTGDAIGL
Chain of UniProt O23661 (whole entry, looked up): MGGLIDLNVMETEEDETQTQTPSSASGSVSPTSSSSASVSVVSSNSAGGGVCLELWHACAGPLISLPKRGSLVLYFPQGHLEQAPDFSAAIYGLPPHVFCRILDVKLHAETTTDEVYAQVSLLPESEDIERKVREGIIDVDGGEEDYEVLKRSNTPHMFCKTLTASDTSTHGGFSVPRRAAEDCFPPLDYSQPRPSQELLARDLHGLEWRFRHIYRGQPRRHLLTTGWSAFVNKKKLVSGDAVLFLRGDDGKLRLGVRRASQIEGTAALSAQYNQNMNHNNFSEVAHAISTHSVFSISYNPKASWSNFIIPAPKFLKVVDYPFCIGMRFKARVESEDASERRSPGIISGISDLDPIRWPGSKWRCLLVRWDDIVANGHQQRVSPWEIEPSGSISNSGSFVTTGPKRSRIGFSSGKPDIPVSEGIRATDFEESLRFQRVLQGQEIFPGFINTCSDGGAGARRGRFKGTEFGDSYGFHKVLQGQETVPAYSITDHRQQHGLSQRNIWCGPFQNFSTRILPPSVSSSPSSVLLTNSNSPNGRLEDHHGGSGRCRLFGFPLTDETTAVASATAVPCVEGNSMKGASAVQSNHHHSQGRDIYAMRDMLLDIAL
Chain of UniProt P93024 (whole entry, looked up): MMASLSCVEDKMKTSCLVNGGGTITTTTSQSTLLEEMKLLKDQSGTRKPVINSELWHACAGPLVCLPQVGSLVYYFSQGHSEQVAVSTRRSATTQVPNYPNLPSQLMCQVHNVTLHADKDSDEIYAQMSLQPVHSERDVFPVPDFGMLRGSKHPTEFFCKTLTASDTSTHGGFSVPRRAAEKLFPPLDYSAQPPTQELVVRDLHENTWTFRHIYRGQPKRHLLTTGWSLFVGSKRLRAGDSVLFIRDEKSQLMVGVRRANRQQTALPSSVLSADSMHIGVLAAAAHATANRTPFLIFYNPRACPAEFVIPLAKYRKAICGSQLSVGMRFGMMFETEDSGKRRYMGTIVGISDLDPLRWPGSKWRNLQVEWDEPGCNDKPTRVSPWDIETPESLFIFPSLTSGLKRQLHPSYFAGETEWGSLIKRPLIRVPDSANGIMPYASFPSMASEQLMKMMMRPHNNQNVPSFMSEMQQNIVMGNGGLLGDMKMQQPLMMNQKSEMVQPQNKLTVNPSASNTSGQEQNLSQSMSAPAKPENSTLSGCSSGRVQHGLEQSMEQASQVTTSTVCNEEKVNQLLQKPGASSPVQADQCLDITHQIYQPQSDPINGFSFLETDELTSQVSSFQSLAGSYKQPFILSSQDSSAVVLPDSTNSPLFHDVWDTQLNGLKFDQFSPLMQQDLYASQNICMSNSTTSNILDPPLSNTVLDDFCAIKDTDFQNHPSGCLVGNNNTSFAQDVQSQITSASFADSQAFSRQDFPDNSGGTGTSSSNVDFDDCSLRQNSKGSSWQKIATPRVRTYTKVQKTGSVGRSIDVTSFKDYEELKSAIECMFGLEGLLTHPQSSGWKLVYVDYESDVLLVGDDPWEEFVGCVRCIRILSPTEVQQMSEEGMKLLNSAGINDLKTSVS
Chain of UniProt Q9FGV1 (whole entry, looked up): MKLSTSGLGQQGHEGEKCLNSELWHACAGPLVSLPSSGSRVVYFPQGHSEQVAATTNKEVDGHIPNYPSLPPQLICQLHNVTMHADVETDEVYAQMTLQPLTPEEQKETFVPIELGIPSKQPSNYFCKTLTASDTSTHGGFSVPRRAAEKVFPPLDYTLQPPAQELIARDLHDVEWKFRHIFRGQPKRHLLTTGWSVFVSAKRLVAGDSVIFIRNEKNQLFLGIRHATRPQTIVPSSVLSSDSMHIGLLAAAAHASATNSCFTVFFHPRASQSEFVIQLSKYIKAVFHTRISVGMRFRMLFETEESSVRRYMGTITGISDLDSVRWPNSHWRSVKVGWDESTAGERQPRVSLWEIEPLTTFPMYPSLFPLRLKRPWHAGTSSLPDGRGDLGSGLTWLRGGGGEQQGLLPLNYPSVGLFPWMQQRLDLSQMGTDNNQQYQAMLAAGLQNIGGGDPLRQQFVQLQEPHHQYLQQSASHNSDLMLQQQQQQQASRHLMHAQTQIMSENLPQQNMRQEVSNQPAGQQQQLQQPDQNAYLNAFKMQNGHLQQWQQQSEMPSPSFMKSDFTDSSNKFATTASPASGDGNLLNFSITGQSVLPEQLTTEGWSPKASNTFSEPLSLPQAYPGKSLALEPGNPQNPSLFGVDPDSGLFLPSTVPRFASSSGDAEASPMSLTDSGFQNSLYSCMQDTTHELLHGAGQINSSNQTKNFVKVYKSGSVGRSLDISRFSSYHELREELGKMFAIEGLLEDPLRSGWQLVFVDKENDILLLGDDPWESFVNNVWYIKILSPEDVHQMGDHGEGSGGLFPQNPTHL
Chain of UniProt Q93YR9 (whole entry, looked up): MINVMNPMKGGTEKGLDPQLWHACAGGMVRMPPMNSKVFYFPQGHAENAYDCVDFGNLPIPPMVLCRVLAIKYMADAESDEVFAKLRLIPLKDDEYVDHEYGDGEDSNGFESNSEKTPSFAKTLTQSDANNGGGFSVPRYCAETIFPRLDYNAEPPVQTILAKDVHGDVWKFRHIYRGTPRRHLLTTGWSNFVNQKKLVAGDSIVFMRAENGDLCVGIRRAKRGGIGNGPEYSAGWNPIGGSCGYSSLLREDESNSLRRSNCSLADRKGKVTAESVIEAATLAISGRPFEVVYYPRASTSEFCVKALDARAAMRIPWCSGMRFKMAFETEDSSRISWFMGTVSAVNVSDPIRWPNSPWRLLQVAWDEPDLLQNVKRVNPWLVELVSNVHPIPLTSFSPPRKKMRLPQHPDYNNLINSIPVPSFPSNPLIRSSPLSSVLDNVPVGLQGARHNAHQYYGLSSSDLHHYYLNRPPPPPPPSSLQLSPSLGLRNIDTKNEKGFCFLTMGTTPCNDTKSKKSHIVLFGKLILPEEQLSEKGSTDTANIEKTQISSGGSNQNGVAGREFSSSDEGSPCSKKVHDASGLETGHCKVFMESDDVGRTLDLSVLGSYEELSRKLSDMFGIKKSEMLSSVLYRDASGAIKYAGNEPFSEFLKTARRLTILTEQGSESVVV

Set 1 — method: DHFR PCA, deep sequencing; medium: yeast; together with: (+)-ABA 0.032 µM; reference: wild-type fitted maximum; reading: higher = stronger binding
Target: ABI1, truncated, D143A, DHFR fusion (Arabidopsis thaliana)
Notes: methotrexate growth selection, single substitutions
Starting sequence: PYL1, truncated, DHFR fusion (Arabidopsis thaliana); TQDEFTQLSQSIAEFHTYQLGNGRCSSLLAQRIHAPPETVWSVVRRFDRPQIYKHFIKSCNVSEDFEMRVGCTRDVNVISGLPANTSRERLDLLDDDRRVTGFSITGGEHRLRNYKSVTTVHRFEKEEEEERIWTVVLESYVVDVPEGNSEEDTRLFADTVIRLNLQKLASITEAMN; partner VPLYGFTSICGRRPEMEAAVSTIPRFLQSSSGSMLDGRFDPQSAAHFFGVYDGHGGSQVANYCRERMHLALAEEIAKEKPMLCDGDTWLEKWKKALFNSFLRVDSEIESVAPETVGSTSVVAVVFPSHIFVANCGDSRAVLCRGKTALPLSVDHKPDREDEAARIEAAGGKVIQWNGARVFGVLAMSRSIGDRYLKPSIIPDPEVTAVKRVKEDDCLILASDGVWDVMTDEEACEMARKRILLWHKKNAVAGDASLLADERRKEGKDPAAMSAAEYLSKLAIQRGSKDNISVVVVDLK
For `G108P`, “relative binding score” read 1.72%.
For `S80L`, “relative binding score” read 38%.
For `E67G`, “relative binding score” read 4.32%.
`L29R`: “relative binding score” 1.79%.
`I105L`: “relative binding score” 0.133%.
For `F15Y`, “relative binding score” read 29.4%.
For `R24F`, “relative binding score” read -0.63%.
`H110M` — result for “relative binding score”: 34.4%.
`G107L` — result for “relative binding score”: 0.757%.
Under “relative binding score”, `G21P` is recorded as 1.06%.
`T106Y` — result for “relative binding score”: 6.58%.
Under “relative binding score”, `I105G` is recorded as -2.08%.
For `S63I`, “relative binding score” read 4%.
`A35Q` — result for “relative binding score”: 0.111%.
`F15T`: “relative binding score” 2.36%.
`D153V`: “relative binding score” 2.24%.
`R123W`: “relative binding score” -0.147%.
`T6R` — result for “relative binding score”: 51.4%.
`S59Y` — result for “relative binding score”: 0.226%.
For `D92H`, “relative binding score” read 0.401%.
`N61C`: “relative binding score” 24%.
`S59P` — result for “relative binding score”: -3.4%.
`T106S`: “relative binding score” 1.63%.
`I12R` — result for “relative binding score”: 2.38%.
`V70I` — result for “relative binding score”: 17.2%.

Set 2 — Molecule: B1 (IAA11); method: two-hybrid; notes: weak activation fusion; reading: higher = firmer interaction
B1: IAA11 (Arabidopsis thaliana, UniProt Q38829); chain MEGGSASGSASALSNDENLVVSCEDSSSPIGNELELGLTLSLGRKGYRDCRVYADDSSSSSSSSSLSRASVIAGIKRTADSMAATSGQVVGWPPIRTYRMNSMVNQAKASATEDPNLEISQAVNKNRSDSTKMRNSMFVKVTMDGIPIGRKIDLNAHKCYESLSNTLEEMFLKPKLGSRTLETDGHMETPVKILPDGSSGLVLTYEDKEGDWMLVGDVPWGMFIGSVRRLRIMKTSEATGKAQMIL
It gave 0 for positive tests (ETT (Arabidopsis thaliana, UniProt O23661); reference: out of 4 tests).
IAA20 (Arabidopsis thaliana, UniProt O24410); reference: out of 4 tests — positive tests: 0.
ARF8 699-811 (Arabidopsis thaliana, UniProt Q9FGV1); reference: out of 4 tests — positive tests: 0.
For IAA15 (Arabidopsis thaliana, UniProt Q9C966); reference: out of 2 tests: positive tests read 0.
ARF16 570-670 (Arabidopsis thaliana, UniProt Q93YR9); reference: out of 4 tests — positive tests: 0.
It gave 2 for positive tests (ARF5 788-902 (Arabidopsis thaliana, UniProt P93024); reference: out of 4 tests).

Set 3 — method: Sort-seq; measured: YFP reporter; medium: E. coli; notes: PhoQ-PhoP variant library; together with: 10 µM Mg2+; reference: high Mg2+ state; reading: higher = stronger signaling
Molecule: PhoQ, residues 284 288 289 292 302 303 WVSSAF
PhoP, residues 12 14 15 18 19 LHHYF (Escherichia coli, UniProt P23836) — fold induction: 3.73.
The fold induction was 10.1 (PhoP, residues 12 14 15 18 19 NFFVT (Escherichia coli, UniProt P23836)).
PhoP, residues 12 14 15 18 19 VGHWL (Escherichia coli, UniProt P23836) — fold induction: 1.53.

Set 4 — method: aptamer microarray, sandwich; molecule type: DNA with 2'F-ANA; medium: in vitro; tested at: 200 nM; together with: Cy3 exosite-II aptamer, 400 nM; reading: higher = stronger binding; sequence: GGTTGGTGTGGTTGG
Target: Prothrombin, mature alpha-thrombin (F2, Homo sapiens, UniProt P00734)
Notes: whole 15-mer aptamer, many near background
For `2'F-ANA at 1 2 3 5 6 7 8 10 12 15`, “mean fluorescence intensity” read 52.4 a.u.
`2'F-ANA at 10 11 12 14` — result for “mean fluorescence intensity”: 109 a.u.
`2'F-ANA at 4 5 6 7 8 9 13 14 15` — result for “mean fluorescence intensity”: 83.4 a.u.
For `2'F-ANA at 1 3 4 8 11 12 14 15`, “mean fluorescence intensity” read 97.2 a.u.
`2'F-ANA at 1 2 3 5 6 11 13 14` — result for “mean fluorescence intensity”: 48.7 a.u.
For `2'F-ANA at 1 2 3 6 8 12 13 15`, “mean fluorescence intensity” read 387 a.u.
`2'F-ANA at 2 4 6 7 8 9 11 13 14` — result for “mean fluorescence intensity”: 104 a.u.
`2'F-ANA at 1 2 5 9 10 14`: “mean fluorescence intensity” 132 a.u.
For `2'F-ANA at 3 4 7 8 11`, “mean fluorescence intensity” read 768 a.u.
`2'F-ANA at 1 3 5 8 11` — result for “mean fluorescence intensity”: 58.9 a.u.
For `2'F-ANA at 2 6 7 10 14 15`, “mean fluorescence intensity” read 82.4 a.u.
For `2'F-ANA at 1 6 8 9 11 13`, “mean fluorescence intensity” read 141 a.u.
`2'F-ANA at 2 3 4 6 7 8 11 12 13 15` — result for “mean fluorescence intensity”: 615 a.u.
`2'F-ANA at 1 2 3 4 5 7 9 10 11 14`: “mean fluorescence intensity” 49.1 a.u.
For `2'F-ANA at 5 6 7 8 12 13 14`, “mean fluorescence intensity” read 94.2 a.u.
Under “mean fluorescence intensity”, `2'F-ANA at 1 2 5 8 11 12 15` is recorded as 109 a.u.
`2'F-ANA at 2 6 7 14 15` — result for “mean fluorescence intensity”: 138 a.u.
`2'F-ANA at 2 4 9 10 11 12 13`: “mean fluorescence intensity” 94.2 a.u.
Under “mean fluorescence intensity”, `2'F-ANA at 7 11 13 14` is recorded as 201 a.u.
`2'F-ANA at 2 3 9 11 12 13 14` — result for “mean fluorescence intensity”: 450 a.u.
`2'F-ANA at 1 2 3 4 5 6 7 13 15` — result for “mean fluorescence intensity”: 61.8 a.u.
For `2'F-ANA at 1 2 5 7 8 9 10 11`, “mean fluorescence intensity” read 51.1 a.u.
`2'F-ANA at 1 2 4 5 6 10 13 15` — result for “mean fluorescence intensity”: 53.9 a.u.
`2'F-ANA at 1 2 3 5 6 7 10 11 12 13` — result for “mean fluorescence intensity”: 78.7 a.u.
`2'F-ANA at 2 3 6 8 9 10 11 12 13`: “mean fluorescence intensity” 328 a.u.

Set 5 — target: CCND3, cyclin fold, Cln2 fusion (human); method: yeast growth competition, sequencing; medium: yeast; notes: weak parent motif; reference: not given; reading: higher = stronger binding
Starting sequence: CDKN1B docking peptide (human); PSACRNLFGPVDH
Under “normalised enrichment score”, `GSACRNLFGPVDH [P1G]` is recorded as 0.11.
`PSACANLFGPVDH [R5A]` — result for “normalised enrichment score”: 0.0585.
`PSACANAFGPVDH [R5A L7A]` — result for “normalised enrichment score”: 0.0742.
Under “normalised enrichment score”, `PSACRNLMGPVDH [F8M]` is recorded as 0.0905.
`PSAKRNLFGPVDH [C4K]`: “normalised enrichment score” 0.0649.
`PSACRNLVGPVDH [F8V]`: “normalised enrichment score” 0.0558.
Under “normalised enrichment score”, `PSACRFLFGPVDH [N6F]` is recorded as 0.0914.
`PSACRNLFGPVDK [H13K]` — result for “normalised enrichment score”: 0.126.
Under “normalised enrichment score”, `PSACRDLFGPVDH [N6D]` is recorded as 0.149.
`PSACSNLFGPVDH [R5S]`: “normalised enrichment score” 0.0374.
`PSACRNLFGIVDH [P10I]`: “normalised enrichment score” 0.117.
`PSACRNGFGPVDH [L7G]`: “normalised enrichment score” 0.0998.
Under “normalised enrichment score”, `PSACRNLFGPVDA [H13A]` is recorded as 0.0936.
`PSACRNLFGPVDI [H13I]` — result for “normalised enrichment score”: 0.119.
`PSAFRNLFGPVDH [C4F]` — result for “normalised enrichment score”: 0.149.
`PSACNNLFGPVDH [R5N]` — result for “normalised enrichment score”: 0.169.

Set 6 — target: JUNB, bZIP domain (human); method: DHFR protein complementation; medium: yeast; reference: wild-type JUN-FOS pair; reading: higher = stronger binding
Notes: single substitutions, most at no-binding floor
Starting sequence: JUN, bZIP domain (human); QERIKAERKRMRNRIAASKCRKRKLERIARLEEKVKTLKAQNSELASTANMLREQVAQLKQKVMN; partner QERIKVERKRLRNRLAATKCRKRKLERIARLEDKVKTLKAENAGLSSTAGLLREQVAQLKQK
For `R53S`, the binding fitness was -1.32 natural log.
`V35E` has a binding fitness of -1.54 natural log.
`S47G` has a binding fitness of -1.23 natural log.
For `A40M`, the binding fitness was -1.16 natural log.
For `S43Q`, the binding fitness was -0.926 natural log.
With `I28L` the binding fitness was -1.29 natural log.
`L31M` has a binding fitness of -1.5 natural log.
The binding fitness of `L31A` is reported as -1.44 natural log.
With `V56F` the binding fitness was -1.28 natural log.
For `L45M`, the binding fitness was -1.31 natural log.
`L38W` has a binding fitness of -1.5 natural log.
With `V35M` the binding fitness was -1.55 natural log.
With `R30F` the binding fitness was -1.16 natural log.
With `E44F` the binding fitness was -1.24 natural log.
`Q41M` gave a binding fitness of -1.2 natural log.
The binding fitness of `K39H` is reported as -1.37 natural log.
With `R53L` the binding fitness was -1.46 natural log.
For `Q41V`, the binding fitness was -1.3 natural log.

Excerpt of the above (set 1):
For `D92H`, “relative binding score” read 0.401%.
Under “relative binding score”, `I105G` is recorded as -2.08%.
`F15T`: “relative binding score” 2.36%.
`I105L`: “relative binding score” 0.133%.
For `F15Y`, “relative binding score” read 29.4%.
For `G108P`, “relative binding score” read 1.72%.
`T106S`: “relative binding score” 1.63%.
For `S63I`, “relative binding score” read 4%.
